Published values pooled from the literature.
Compare with care: the assays were run in different laboratories. In brackets after ≈: the same amount, converted by molar mass.

Chains of the proteins cited; added tags and fusions are not shown.
UniProt P48730, whole entry: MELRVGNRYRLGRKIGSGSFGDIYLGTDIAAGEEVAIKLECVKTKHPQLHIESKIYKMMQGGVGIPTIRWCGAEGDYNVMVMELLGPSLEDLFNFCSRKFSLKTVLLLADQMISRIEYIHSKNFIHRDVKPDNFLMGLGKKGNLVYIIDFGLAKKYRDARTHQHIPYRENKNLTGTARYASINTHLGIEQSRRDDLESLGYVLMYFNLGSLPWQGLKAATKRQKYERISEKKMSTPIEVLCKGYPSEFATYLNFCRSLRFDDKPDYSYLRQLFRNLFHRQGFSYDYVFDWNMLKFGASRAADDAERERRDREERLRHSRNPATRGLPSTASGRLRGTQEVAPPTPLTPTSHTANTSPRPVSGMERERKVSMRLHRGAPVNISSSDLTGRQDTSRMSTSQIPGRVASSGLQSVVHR
UniProt Q99683, whole entry: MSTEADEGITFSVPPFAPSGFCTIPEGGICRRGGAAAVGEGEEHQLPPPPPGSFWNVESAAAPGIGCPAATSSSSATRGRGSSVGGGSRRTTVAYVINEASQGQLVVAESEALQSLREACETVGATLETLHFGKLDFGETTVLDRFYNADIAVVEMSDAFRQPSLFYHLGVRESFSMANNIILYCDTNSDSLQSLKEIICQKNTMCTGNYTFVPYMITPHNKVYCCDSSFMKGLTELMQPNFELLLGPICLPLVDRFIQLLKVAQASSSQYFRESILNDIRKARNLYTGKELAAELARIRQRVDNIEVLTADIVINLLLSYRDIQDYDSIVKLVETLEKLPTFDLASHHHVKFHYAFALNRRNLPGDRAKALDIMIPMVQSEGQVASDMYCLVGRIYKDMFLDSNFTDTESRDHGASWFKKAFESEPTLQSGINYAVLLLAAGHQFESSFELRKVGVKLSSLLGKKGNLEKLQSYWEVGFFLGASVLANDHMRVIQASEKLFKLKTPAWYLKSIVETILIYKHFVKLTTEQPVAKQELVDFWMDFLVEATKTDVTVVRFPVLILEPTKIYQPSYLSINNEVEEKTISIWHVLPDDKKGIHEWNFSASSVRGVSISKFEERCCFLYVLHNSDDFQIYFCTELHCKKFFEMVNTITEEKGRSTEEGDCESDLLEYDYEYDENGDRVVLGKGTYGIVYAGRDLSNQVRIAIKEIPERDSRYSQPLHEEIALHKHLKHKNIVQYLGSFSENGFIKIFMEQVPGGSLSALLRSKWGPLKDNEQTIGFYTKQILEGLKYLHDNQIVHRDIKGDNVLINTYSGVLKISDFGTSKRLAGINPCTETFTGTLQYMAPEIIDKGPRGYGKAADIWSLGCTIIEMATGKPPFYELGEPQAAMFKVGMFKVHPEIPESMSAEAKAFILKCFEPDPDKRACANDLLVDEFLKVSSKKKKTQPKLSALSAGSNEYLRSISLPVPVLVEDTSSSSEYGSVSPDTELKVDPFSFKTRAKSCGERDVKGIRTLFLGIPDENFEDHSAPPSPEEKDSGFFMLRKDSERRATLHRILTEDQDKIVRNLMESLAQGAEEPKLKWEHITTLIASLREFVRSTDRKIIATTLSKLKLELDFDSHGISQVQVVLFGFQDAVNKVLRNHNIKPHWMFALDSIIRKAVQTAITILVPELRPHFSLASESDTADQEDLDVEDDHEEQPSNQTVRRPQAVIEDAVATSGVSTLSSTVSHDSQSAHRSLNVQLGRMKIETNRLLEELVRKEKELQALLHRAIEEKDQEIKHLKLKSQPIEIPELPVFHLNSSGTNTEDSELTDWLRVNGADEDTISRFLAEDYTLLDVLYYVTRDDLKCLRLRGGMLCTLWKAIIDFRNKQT

O=C(O)COc1ccc2nc3ccc(=O)cc-3oc2c1 — MIC90 (Mycobacterium tuberculosis; mc2 6206 bedaquiline-resistant MmpL5 regulator mutant; 7 days): > 256 µM
CC#C/C(=N\OC[C@H]1COCCN1)c1ccc2ncnc(Nc3ccc(OCc4cccc(F)c4)c(Cl)c3)c2c1 — inhibition (Casein kinase I isoform delta (CSNK1D, Homo sapiens, UniProt P48730); kinase activity; 10 µM): -10.7%
CS(=O)(=O)NC(=O)NCc1cn(-c2ccc(Cl)cc2)nc1-c1ccncc1 — MIC (Mycobacterium tuberculosis; MmpL3 G253E mutant): 1 µM
CC1(C)CCC(Cc2cc(O)c(-c3ccccc3)c(=O)[nH]2)CC1 — MIC50 (Mycobacterium tuberculosis; H37Rv): 0.05 µM (≈ 0.0156 µg/mL)
CS(=O)(=O)NC(=O)NCc1cc(-c2ccc(Br)cc2)oc1-c1ccncc1 — MIC (Mycobacterium tuberculosis; OD600; QcrB A317T mutant): 0.12 µM
CCc1nc(N)nc(N)c1C#C[C@@H](C)c1cc(OC)cc(-c2ccc(C(=O)O)cc2)c1 — MIC (Mycobacterium tuberculosis; INCA-resistant strains): 1 µg/mL
CS(=O)(=O)NC(=O)CCc1cn(-c2ccc(Br)cc2)nc1-c1ccc(Cl)cc1 — MIC (Mycobacterium tuberculosis; MmpL3 G758A mutant): 2 µM
O=c1ccc2nc3ccc(OCc4ccccc4)cc3oc-2c1 — MIC90 (Mycobacterium tuberculosis; mc2 6206 bedaquiline-resistant MmpL5 regulator mutant; 7 days): > 512 µM
CCN1CCN(Cc2ccc(NC(=O)c3ccc(C)c(/C=C/c4cnc5[nH]ccc5c4OC)c3)cc2C(F)(F)F)CC1 — log2 fold change (Mitogen-activated protein kinase kinase kinase 5, with CDC37 (MAP3K5, Homo sapiens, UniProt Q99683); inhibitor, cell-based kinome screen; human cells; 5 µM; relative to: vehicle): -1.03
COc1ccc2nc3ccc(=O)cc-3oc2c1 — MIC90 (Mycobacterium tuberculosis; mc2 6206 clofazimine-resistant fbiC mutant; 7 days): 60 µM (≈ 13.6 µg/mL)
CCc1nc(N)nc(N)c1C#CCc1cc(OC)cc(-c2ccc(C(=O)O)cc2)c1 — MIC (Mycobacterium tuberculosis; PAS-resistant folC I43T): 1 µg/mL

A few entries again:
O=c1ccc2nc3ccc(OCc4ccccc4)cc3oc-2c1 — MIC90 (Mycobacterium tuberculosis; mc2 6206 bedaquiline-resistant MmpL5 regulator mutant; 7 days): > 512 µM
